Measured values pooled from the literature.
“And” joins repeats or separate records; there may be more than shown.
Target: Aurora kinase C (AURKC, Homo sapiens, UniProt Q9UQB9)
One construct used (Q9UQB9 1-309): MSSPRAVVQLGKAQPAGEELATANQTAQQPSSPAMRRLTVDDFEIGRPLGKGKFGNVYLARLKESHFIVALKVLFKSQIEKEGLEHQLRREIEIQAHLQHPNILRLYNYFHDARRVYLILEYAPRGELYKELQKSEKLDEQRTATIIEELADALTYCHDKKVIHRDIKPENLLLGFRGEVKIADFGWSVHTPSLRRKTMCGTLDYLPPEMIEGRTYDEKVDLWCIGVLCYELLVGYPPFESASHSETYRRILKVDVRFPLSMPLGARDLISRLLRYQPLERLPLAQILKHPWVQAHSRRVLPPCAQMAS

Structure (SMILES)	assay	conditions	how to read	quantity	value
NC(=O)C[C@H]1CCc2sc3ncnc(O[C@H]4CC[C@H](N5CCOCC5)CC4)c3c21	enzyme activity, inhibitor	10 µM		inhibition	8%
C=CC(=O)N1CCCC(n2c(=O)c3ncccc3n(Cc3ccc(Oc4ccccc4)cc3)c2=O)C1 (stereo not drawn)	cell-free assay, competition with immobilised ligand	1 µM		remaining binding	100%
Cc1ccc(-c2c(/C=C(\C#N)C(=O)NC(C)C)n(CCCO)c3ncnc(N)c23)cc1	cell-free assay, competition with immobilised ligand	1 µM		remaining binding	71%
CCn1cc(C(=O)O)c(=O)c2c(N)c(F)c(NC3CCCCC3)cc21	kinase activity	0.1 µM, added: ATP at Km		inhibition	12.3%
Cc1cnc2nc1Nc1cccc(c1)COC/C=C/COCc1cc(ccc1OCCN1CCOCC1)N2	binding	0.1 µM		remaining binding	100%
C=CC(=O)N1CCc2ccc(-n3c(=O)ccc4cnc5ccc(-c6cnn(C)c6)cc5c43)cc21	KINOMEscan	1 µM	relative to: DMSO control	remaining binding	78%
Nc1ncc(-c2cc(-c3cnn(CC(F)(F)F)c3)ncc2F)nc1C(=O)NC1CNCC(F)C1 (stereo not drawn)	enzyme activity	1 µM	relative to: DMSO control	remaining activity	70.3%
COCC12C(=O)NC3C4(C(OC)CC1O)C1CC5(O)C(OC)C(O)C(OC(C)=O)(C1C5OC(=O)c1ccccc1)C3(O)C(OC)C24 (stereo not drawn)	kinase activity, inhibitor, ProQinase kinase profiling	25 µM	relative to: control	remaining activity	110% and 98%
CNC(=O)C1CCN(c2cc(C)c(F)cc2NC(=O)c2ccc(-c3cc(O)ccc3C)c(C)c2)CC1	binding, competition with immobilised ligand	1 µM		remaining binding	100%
O=C(Cc1ccc(OCc2ccccc2)cc1)NC1(C(=O)O)CCN(C(=O)c2ccc(-c3cccc(Cl)c3)cc2)CC1	enzyme activity, inhibitor	10 µM		activity vs control	98%
C=CC(=O)Nc1cccc(-c2cnc3[nH]cc(C(=O)NC(C)(C)C)c3n2)c1	enzyme activity, inhibitor	0.1 µM		inhibition	12%
CN1C[C@@H](c2c[nH]c3cc(Br)ccc23)NC[C@@H]1c1c[nH]c2cc(Br)ccc12	enzyme activity, inhibitor	10 µM		remaining activity	85%
Cc1cccc(O[C@H]2CCC[C@@H](C(C)CNCc3ccncc3)C2)c1 (relative stereo)	cell-free assay	10 µM		inhibition	0%
COc1ccc(NC(=O)Nc2ccc3c(c2)C(=O)N(C(C)CO)CC(C)C(CN(C)Cc2ccc4c(c2)OCO4)O3)cc1 (stereo not drawn)	kinase activity	0.03 µM	relative to: control	remaining activity	31%
CNC(=O)C[C@H](Cc1ccc(C#N)cc1)NC(=O)c1cc(-c2ccc(CN[C@H](C)c3ccc(C)cc3)o2)ccc1Cl	enzyme activity, inhibitor	1 µM		activity vs control	103%
